Measured values from different studies.
Every numbered part comes from another study and shows a few of its results, in no order.
Chain of UniProt Q13976 (whole entry, looked up): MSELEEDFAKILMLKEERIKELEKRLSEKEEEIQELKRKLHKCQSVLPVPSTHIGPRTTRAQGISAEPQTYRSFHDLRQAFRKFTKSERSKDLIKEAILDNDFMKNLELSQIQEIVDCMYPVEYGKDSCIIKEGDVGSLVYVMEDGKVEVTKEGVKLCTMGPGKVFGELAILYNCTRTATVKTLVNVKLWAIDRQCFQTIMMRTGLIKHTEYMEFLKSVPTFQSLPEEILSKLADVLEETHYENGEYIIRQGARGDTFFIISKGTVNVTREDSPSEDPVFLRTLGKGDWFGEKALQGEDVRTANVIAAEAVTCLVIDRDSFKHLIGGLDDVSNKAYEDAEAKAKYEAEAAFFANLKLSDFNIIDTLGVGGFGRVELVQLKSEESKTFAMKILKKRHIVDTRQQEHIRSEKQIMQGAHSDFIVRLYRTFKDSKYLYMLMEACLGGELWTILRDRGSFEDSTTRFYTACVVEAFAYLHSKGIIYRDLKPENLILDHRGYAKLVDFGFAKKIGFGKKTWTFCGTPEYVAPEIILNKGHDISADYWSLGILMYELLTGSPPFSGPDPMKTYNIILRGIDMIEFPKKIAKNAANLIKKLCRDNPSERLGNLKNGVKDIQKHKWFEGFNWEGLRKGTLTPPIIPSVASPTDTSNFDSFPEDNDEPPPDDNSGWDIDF
Chain of UniProt Q5S007 (whole entry, looked up): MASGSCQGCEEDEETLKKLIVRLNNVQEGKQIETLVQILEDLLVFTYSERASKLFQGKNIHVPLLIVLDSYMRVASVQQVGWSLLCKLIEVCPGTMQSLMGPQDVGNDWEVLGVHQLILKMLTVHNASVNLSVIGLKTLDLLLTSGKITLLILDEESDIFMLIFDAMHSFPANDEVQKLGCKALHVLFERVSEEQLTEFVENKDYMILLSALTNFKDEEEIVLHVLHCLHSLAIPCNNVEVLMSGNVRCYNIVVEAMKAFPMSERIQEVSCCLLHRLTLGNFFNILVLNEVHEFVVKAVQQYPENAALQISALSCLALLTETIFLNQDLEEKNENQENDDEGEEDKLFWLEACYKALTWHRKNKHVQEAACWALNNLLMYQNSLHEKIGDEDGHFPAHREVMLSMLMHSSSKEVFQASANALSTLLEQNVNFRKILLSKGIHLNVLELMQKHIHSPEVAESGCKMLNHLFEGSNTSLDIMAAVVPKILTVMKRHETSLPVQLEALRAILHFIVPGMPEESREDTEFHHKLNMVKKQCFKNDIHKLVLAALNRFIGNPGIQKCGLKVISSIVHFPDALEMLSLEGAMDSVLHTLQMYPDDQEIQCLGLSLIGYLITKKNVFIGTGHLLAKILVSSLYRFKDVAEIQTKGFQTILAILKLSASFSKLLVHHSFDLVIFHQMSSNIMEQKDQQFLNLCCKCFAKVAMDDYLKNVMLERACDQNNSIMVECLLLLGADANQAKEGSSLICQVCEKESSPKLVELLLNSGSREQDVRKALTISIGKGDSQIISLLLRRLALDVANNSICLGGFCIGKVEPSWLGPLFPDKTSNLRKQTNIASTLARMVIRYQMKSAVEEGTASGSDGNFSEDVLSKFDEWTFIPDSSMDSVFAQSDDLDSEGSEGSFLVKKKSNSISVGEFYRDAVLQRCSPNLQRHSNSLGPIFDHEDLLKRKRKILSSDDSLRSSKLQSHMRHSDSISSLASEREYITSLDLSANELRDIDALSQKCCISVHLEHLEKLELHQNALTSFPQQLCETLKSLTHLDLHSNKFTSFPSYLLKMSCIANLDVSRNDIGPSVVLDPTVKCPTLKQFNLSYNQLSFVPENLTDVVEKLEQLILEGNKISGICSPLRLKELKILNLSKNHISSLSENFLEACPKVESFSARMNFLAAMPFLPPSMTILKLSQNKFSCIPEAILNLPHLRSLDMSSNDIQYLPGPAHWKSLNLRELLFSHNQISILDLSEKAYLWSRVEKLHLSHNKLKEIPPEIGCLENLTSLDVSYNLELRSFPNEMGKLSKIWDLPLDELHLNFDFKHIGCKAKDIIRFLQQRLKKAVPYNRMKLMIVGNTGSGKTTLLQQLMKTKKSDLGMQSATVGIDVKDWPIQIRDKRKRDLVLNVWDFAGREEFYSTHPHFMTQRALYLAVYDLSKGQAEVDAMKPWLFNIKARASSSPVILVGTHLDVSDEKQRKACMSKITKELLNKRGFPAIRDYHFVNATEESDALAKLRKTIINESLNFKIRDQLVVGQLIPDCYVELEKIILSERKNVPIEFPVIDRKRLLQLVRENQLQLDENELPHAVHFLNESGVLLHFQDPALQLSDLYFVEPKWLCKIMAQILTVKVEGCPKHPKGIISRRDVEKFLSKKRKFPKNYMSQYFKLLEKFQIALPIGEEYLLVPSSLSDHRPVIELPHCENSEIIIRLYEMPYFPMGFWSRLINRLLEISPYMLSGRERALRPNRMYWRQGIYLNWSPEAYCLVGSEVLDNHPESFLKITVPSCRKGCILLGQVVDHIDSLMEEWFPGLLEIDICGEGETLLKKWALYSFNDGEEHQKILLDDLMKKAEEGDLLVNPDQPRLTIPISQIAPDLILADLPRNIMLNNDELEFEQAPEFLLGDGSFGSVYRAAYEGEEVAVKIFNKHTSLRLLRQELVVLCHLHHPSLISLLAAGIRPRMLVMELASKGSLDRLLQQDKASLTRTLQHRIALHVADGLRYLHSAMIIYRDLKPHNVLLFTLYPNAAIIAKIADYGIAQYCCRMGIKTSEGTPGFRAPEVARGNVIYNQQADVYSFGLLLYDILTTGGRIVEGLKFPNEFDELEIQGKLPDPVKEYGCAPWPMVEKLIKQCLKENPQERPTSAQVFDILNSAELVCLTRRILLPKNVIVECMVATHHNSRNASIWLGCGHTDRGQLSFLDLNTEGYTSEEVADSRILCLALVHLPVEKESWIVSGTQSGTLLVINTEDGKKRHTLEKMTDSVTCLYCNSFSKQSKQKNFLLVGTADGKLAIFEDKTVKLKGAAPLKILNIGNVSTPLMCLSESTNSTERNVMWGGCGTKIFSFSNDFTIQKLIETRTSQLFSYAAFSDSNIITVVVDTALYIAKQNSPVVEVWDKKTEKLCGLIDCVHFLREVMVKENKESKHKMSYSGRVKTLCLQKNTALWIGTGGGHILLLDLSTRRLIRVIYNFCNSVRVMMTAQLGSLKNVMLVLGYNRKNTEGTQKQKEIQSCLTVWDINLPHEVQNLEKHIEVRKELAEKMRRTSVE
Chain of UniProt P10721 (whole entry, looked up): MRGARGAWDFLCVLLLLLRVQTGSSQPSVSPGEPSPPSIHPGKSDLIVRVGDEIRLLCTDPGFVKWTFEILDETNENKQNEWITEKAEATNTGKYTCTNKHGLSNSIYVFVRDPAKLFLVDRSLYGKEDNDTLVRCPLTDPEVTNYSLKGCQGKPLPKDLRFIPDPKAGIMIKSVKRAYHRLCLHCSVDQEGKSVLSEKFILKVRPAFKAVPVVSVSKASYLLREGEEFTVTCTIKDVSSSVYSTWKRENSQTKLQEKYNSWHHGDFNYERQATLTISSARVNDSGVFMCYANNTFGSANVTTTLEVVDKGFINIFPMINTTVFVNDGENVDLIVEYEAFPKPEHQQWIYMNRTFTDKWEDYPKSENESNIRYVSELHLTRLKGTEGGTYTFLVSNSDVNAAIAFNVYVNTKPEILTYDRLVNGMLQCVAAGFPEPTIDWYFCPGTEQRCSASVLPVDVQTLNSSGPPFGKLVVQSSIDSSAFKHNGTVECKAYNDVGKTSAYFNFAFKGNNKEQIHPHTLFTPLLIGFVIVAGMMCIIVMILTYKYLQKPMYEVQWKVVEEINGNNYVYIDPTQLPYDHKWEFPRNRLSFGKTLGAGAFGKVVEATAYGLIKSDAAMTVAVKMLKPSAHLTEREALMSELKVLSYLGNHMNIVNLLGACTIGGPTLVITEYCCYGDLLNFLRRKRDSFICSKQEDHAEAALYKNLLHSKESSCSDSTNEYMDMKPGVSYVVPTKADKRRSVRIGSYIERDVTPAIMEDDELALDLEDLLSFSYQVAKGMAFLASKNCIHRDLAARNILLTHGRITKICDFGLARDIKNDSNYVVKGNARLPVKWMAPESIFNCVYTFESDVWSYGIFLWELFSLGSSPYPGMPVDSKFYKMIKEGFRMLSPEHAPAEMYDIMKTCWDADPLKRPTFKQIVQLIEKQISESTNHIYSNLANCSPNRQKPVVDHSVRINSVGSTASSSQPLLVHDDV

Study 1
Target: Eukaryotic initiation factor 4A-I (EIF4A1, Homo sapiens, UniProt P60842)
Chain of UniProt P60842 (whole entry, looked up): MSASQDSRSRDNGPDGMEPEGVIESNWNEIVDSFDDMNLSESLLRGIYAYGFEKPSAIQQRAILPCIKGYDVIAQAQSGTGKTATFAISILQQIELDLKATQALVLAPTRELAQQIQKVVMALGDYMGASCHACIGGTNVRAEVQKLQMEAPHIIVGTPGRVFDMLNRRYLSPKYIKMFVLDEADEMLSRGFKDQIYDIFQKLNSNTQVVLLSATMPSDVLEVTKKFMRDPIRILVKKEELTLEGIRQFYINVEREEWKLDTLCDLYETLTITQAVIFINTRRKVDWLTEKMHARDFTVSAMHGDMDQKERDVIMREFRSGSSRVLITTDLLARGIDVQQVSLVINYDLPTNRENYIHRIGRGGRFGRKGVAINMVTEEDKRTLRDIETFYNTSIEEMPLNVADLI
Read-out: RNA clamping
Method: fluorescence polarization
Concentration: concentration not given
With: FAM-labelled poly r(AG)8 RNA
SMILES | fluorescence polarization change [mP]
COCCN[C@@]12C(=O)C[C@@H](c3ccccc3)[C@]1(c1ccc(OC)cc1)Oc1cc(OC)cc(OC)c12 | -13.3
O=C1C[C@@H](c2ccccc2)[C@]2(c3ccc(Br)cc3)Oc3cc(F)cc(F)c3[C@]12O | 13.7
C#CCCC1(CCOc2ccc([C@@H]3[C@@H](C(=O)N(C)OC)[C@@H](O)[C@@]4(O)c5c(OC)cc(OC)cc5O[C@@]34c3ccc(OC)cc3)cc2)N=N1 | 1.7
COc1ccc([C@@]23Oc4cc(O)cc(OC)c4[C@]2(O)[C@H](O)[C@H](C(=O)N(C)OC)[C@H]3c2ccccc2)cc1 | 12
C#CCOc1cc(OC)c2c(c1)O[C@@]1(c3ccc(OC)cc3)[C@H](c3ccccc3)c3c(nc4n(c3=O)CCC4)[C@@]21O | 20.4
COc1ccc([C@@]23Oc4cc(O)cc(OC)c4[C@]2(O)c2nc4n(c(=O)c2[C@H]3c2ccccc2)CCC4)cc1 | 40.7
COCCOCOC(=C(F)F)c1ccc([C@@H]2[C@@H](C(=O)N(C)OC)[C@@H](O)[C@@]3(O)c4c(OC)cc(OC)cc4O[C@@]23c2ccc(OC)cc2)cc1 | -13.8
COCCN[C@@]12c3nc(-c4ccccc4)[nH]c(=O)c3[C@@H](c3ccccc3)[C@]1(c1ccc(OC)cc1)Oc1cc(OC)cc(OC)c12 | 10.6
COc1ccc([C@]23Oc4cc(OC)cc(OC)c4[C@](O)([C@H]2O)[C@@H](C(=O)N(C)OC)[C@@H]3c2ccccc2)cc1 | 11.4

Study 2
Structure (SMILES): CC(C)n1cnc(-c2ccc(F)cc2)c1-c1ncc(C(=O)Nc2ccc(N3CCN(C)CC3)cc2)[nH]1
method | item | host | route | dose | setting | patients with TEAE [%]
– | erythrocyte sedimentation rate increased | idiopathic pulmonary fibrosis patients | – | 30 mg once daily | – | 0
phase 2a trial | – | idiopathic pulmonary fibrosis patients | oral | 30 mg once daily | musculoskeletal disorders, grade 2 | 1
phase 2a trial | – | idiopathic pulmonary fibrosis patients | oral | 60 mg once daily | LDL increased, grade 1 | 1
phase 2a trial | – | patients with idiopathic pulmonary fibrosis | – | 30 mg once daily | skin papilloma, maximum intensity grade 2 | 0
– | periorbital oedema | idiopathic pulmonary fibrosis patients | – | 30 mg once daily | – | 0
phase 2a trial | – | patients with idiopathic pulmonary fibrosis | – | 30 mg once daily | atopic dermatitis, grade 4 | 0
phase 2a trial | – | patients with idiopathic pulmonary fibrosis | – | 30 mg once daily | eye swelling, grade 3 | 0
phase 2a trial | – | idiopathic pulmonary fibrosis patients | oral | dose not given | CK-MB increased, grade 3, all arms | 0
phase 2a trial | – | idiopathic pulmonary fibrosis patients | oral | dose not given | LDL increased, grade 4, all arms | 0
phase 2a trial | – | patients with idiopathic pulmonary fibrosis | – | 60 mg once daily | renal and urinary disorders SOC, grade 4 | 0
phase 2a trial | – | patients with idiopathic pulmonary fibrosis | – | 30 mg once daily | atopic dermatitis, grade 5 | 0
phase 2a trial | – | idiopathic pulmonary fibrosis patients | oral | 60 mg once daily | urine red cells, grade 5 | 0
phase 2a trial | – | patients with idiopathic pulmonary fibrosis | – | 60 mg once daily | nervous system disorders SOC, grade 2 | 0
phase 2a trial | – | idiopathic pulmonary fibrosis patients | oral | dose not given | urine red cells, grade 5, all arms | 0
– | CA19-9 increased | idiopathic pulmonary fibrosis patients | – | 30 mg once daily | – | 0
phase 2a trial | – | patients with idiopathic pulmonary fibrosis | – | 60 mg once daily | eye swelling, grade 3 | 0
– | prostatic calcification | idiopathic pulmonary fibrosis patients | – | 60 mg once daily | – | 0
phase 2a trial | – | idiopathic pulmonary fibrosis patients | oral | 30 mg once daily | LDL increased, grade 2 | 0

Study 3
SMILES: Nc1nccc(-c2c(-c3ccc(F)cc3)ncn2C2CCNCC2)n1
Read-out: enzyme activity
Mode: inhibitor
Concentration: 0.5 µM
Baseline: control
target | remaining activity
Mast/stem cell growth factor receptor Kit (KIT, Homo sapiens, UniProt P10721) | 98.4%
RAC-gamma serine/threonine-protein kinase (AKT3, Homo sapiens, UniProt Q9Y243) | 92.6%
Tyrosine-protein kinase BTK (BTK, Homo sapiens, UniProt Q06187) | 100%
Serine/threonine-protein kinase PLK2 (PLK2, Homo sapiens, UniProt Q9NYY3) | 93%
Serine/threonine-protein kinase 38 (STK38, Homo sapiens, UniProt Q15208) | 99.8%
Tyrosine-protein kinase Lyn (LYN, Homo sapiens, UniProt P07948) | 87.5%
cGMP-dependent protein kinase 1 (PRKG1, Homo sapiens, UniProt Q13976) | 97.7%
Casein kinase II subunit alpha (CSNK2A1, Homo sapiens, UniProt P68400) | 94.7%
Serine/threonine-protein kinase Nek4 (NEK4, Homo sapiens, UniProt P51957) | 99.5%
Mitogen-activated protein kinase kinase kinase 10 (MAP3K10, Homo sapiens, UniProt Q02779) | 99.8%
Serine/threonine-protein kinase Chk1 (CHEK1, Homo sapiens, UniProt O14757) | 99.8%
Casein kinase I isoform alpha (CSNK1A1, Homo sapiens, UniProt P48729) | 2.82%
Protein kinase C iota type (PRKCI, Homo sapiens, UniProt P41743) | 98.5%
Protein kinase C delta type (PRKCD, Homo sapiens, UniProt Q05655) | 99.8%
Mitogen-activated protein kinase kinase kinase kinase 2 (MAP4K2, Homo sapiens, UniProt Q12851) | 102%
Cyclin-dependent kinase 9, with cyclin T1 (CDK9, Homo sapiens, UniProt P50750) | 87.1%
Dual specificity mitogen-activated protein kinase kinase 6 (MAP2K6, Homo sapiens, UniProt P52564) | 106%
Serine/threonine-protein kinase WNK2 (WNK2, Homo sapiens, UniProt Q9Y3S1) | 93.1%
Ephrin type-A receptor 5 (EPHA5, Homo sapiens, UniProt P54756) | 97.8%
Interleukin-1 receptor-associated kinase 4 (IRAK4, Homo sapiens, UniProt Q9NWZ3) | 123%
Leucine-rich repeat serine/threonine-protein kinase 2 (LRRK2, Homo sapiens, UniProt Q5S007) | 99.9%
MAP kinase-interacting serine/threonine-protein kinase 2 (MKNK2, Homo sapiens, UniProt Q9HBH9) | 92.1%

Study 4
Target: Histamine H3 receptor (HRH3, Homo sapiens, UniProt Q9Y5N1)
Chain of UniProt Q9Y5N1 (whole entry, looked up): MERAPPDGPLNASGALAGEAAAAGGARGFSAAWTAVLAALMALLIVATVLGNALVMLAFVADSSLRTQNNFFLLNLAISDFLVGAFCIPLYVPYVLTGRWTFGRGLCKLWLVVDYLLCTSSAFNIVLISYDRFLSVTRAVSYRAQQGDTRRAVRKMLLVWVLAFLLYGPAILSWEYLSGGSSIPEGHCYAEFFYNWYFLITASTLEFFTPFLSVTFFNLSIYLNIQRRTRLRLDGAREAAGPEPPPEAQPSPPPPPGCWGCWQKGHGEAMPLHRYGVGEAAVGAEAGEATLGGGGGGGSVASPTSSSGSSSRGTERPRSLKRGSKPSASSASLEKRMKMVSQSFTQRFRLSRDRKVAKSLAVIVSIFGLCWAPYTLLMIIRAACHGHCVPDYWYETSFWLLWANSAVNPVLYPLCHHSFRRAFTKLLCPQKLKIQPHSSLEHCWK
Read-out: ligand displacement
Concentration: 10 µM
SMILES | inhibition [%]
Nc1cnc(N2CCc3cc(S(=O)(=O)Nc4c(F)cc(Cl)cc4F)cc(N4CCCC4=O)c32)nc1 | -1.21
NC(=O)c1ccc2nc(-c3ccc(C4(N)CCC4)cc3)c(-c3ccccc3)n2n1 | 14.6
NS(=O)(=O)c1cc(NC(=O)Cc2ccccc2)ccc1Oc1cccc(Cl)c1 | -10.9
COc1cc(C(=O)O)ncc1C#Cc1ccccc1NS(=O)(=O)c1cccc2c(N(C)C)ccnc12 | 6.76
CC[C@H](CC(=O)O)n1c(=O)c2ncccc2n(Cc2cn(C)c3cc(C)cc(C)c23)c1=O | 3.32
CS(=O)(=O)N1CCCC(NC(=O)[C@H](CCC2CCCCC2)NC(=O)c2ccc(CNC(=O)c3cnc4ccccn34)cc2)C1 (some centres unmarked) | 0.32
C[C@H](c1ccc(F)cc1)N(Cc1cccc(C(=O)O)c1)C(=O)c1cnc2ccccc2c1 | 16.6
C[C@@H]1CN(c2cc(-c3n[nH]c4ccc(OC5(C)CC5)cc34)ncn2)C[C@H](C)O1 | -17.3
Nc1nc(NCc2ccccc2)nc(-c2cccc(CO)c2)n1 | -9.05
O=C1NC(c2ccccn2)Sc2ccccc21 (centres unmarked) | 8.1
CC1=C(C#N)C(c2ccc3[nH]nc(C)c3c2)C(C#N)=C(C)N1 | -3.35
CC1CCN(c2ccnc(NCc3cn(C)cn3)n2)CC1 | 35.1
O=C(NS(=O)(=O)c1ccc(NCC2CCOCC2)c([N+](=O)[O-])c1)c1ccc(N2CCN(Cc3ccc(C(F)(F)F)cc3-c3ccc(Cl)cc3)CC2)cc1Oc1cnc2[nH]ccc2c1 | -1.15
COc1cc(-c2cn(C3CCc4c(F)cccc4N(CC(F)(F)F)C3=O)nn2)ccc1-n1cnc(C)c1 (centres unmarked) | 23.3
Cn1cc(Cl)c2c(Oc3c(F)cc(Nc4cc(Cl)nc(N)n4)cc3F)ccnc21 | 31
CC(=O)N1CCC(c2ccc(C(=O)NC3=NCCN3)cc2C(F)(F)F)CC1 | -18
COc1cc(N[C@@H]2CCCC[C@]2(O)C(F)(F)F)ccc1F | -2.34
c1ccc(C2CCN(c3cnc4c(N5CCOCC5)nccn34)CC2)cc1 | 7.29
CCc1ccccc1C(=O)Nc1n[nH]c2c(C)c(F)c(C3C(C#N)=C(C)N(C)C(C)=C3C#N)cc12 | -10.8
CN1CCN(c2ccnc(NCCc3ccccc3)n2)CC1 | 86.2
C[C@@H](c1cccc(C#N)c1)n1cc(Cl)cc(C(N)=O)c1=N | -16.5
O=c1nc(-c2ccccn2)sc2ccccc12 | 2
Cc1noc([C@H]2C[C@@H](c3ccc(C(F)(F)F)cc3)CN(C(=O)N3CCS(=O)(=O)C3)C2)n1 | 5.78
CN1CCN(c2cnc3c(C4CCN(C(=O)c5ccc(OC(F)(F)F)cc5N)CC4)ncnc3c2)CC1 | 36.9
C[C@H](c1ccnc(Nc2nc3ccc(-c4cc(N(C)C)ncn4)cc3[nH]2)c1)N1CCN(C(=O)CC(F)(F)F)CC1 | -3.83
